Experimental data pooled from the literature.
Protocols differ between the studies behind these lines. Values joined by “and” are separate records of one study, mostly repeats; a detail may differ. ± marks the error that the study gave.
TRPA1: Transient receptor potential cation channel subfamily A member 1 (TRPA1, Homo sapiens, UniProt O75762)
Nr3c1: Glucocorticoid receptor (Nr3c1, Rattus norvegicus, UniProt P06536)
GBA1: Lysosomal acid glucosylceramidase (GBA1, Homo sapiens, UniProt P04062)
EPHX2: Bifunctional epoxide hydrolase 2 (EPHX2, Homo sapiens, UniProt P34913)
CHRM2: Muscarinic acetylcholine receptor M2 (CHRM2, Homo sapiens, UniProt P08172)
FAAH: Fatty-acid amide hydrolase 1 (FAAH, Homo sapiens, UniProt O00519)
NPR2: Atrial natriuretic peptide receptor 2 (NPR2, Homo sapiens, UniProt P20594)

C[N+]1(C)CCCCC1CNC(=O)c1cc(OCC(F)(F)F)ccc1OCC(F)(F)F (centres unmarked) — use-dependent block (SCN5A (Homo sapiens, UniProt Q14524); sodium current, blocker, whole-cell patch clamp; 100 µM, internal application): 37.3 ± 1.7%
CCCC[C@H](C)/C=C(C)/C=C/C(=O)O — recovery time constant (TRPA1; ion current, whole-cell patch clamp; HEK-293T transfected; 5 µM, holding potential -60 mV, with: 100 µM AITC): 7.3 ± 2.1 ms
COc1ccccc1CNC(=O)CCn1c(=O)[nH]c2ccsc2c1=O — koff (Heat shock protein 90, N-terminal domain (Plasmodium falciparum, UniProt Q8IC05); binding, SPR): 1.26e-06 s⁻¹
CSCC[C@H](NC(=O)[C@H](CCCCN)NC(=O)[C@@H]1CCCN1C(=O)[C@H](CCC(=O)O)NC(=O)[C@H](CO)NC(=O)[C@H](CCCNC(=N)N)NC(=O)[C@H](C)NC(=O)[C@H](CS)NC(=O)CNC(=O)[C@@H](NC(=O)[C@@H]1CCCN1C(=O)[C@H](CC(N)=O)NC(=O)[C@@H](N)C(C)C)[C@@H](C)O)C(=O)N[C@@H](CO)C(N)=O — kon (WDR5 (Homo sapiens, UniProt P61964); binding, SPR): 490000 M⁻¹ s⁻¹
COc1ccc(NC(=O)CCCCc2ccccc2)c(C)n1 — specific activity (Cocaine esterase (CES2, Homo sapiens, UniProt O00748); substrate; 50 µM, pH 8, 37 °C, enzyme purity 4%): 18 pmol/min/µg
CCSc1nc2c([nH]1)c(=O)n(C)c(=O)n2C — remaining activity (Nr3c1; reporter gene, antagonist, MMTV-luciferase; T47D/A1-2; 10 µM, 24 h, with: 5 nM dexamethasone; relative to: maximal activity): 100%
O=C(/C=C/c1ccccc1)OCCCC[P+](c1ccccc1)(c1ccccc1)c1ccccc1 — enzyme activity (Catalase (Rattus norvegicus, UniProt P04762); 10 µM, 15 and 30 min): no effect
S=C(Nc1ccc(Cl)cc1)Nc1cccc2[nH]ccc12 — effective concentration (Alpha-synuclein (SNCA, Homo sapiens, UniProt P37840); oligomerization, PICUP cross-linking; range 3.13 to 50 µM tested, with: alpha-synuclein 60 µM): 12.5 to 50 µM
CCCCCCCCOP(=O)(Cc1ccccc1)O[C@@H]1O[C@H](CO)[C@@H](O)[C@H](O)[C@H]1F (some centres unmarked) — kinact/Ki (GBA1; enzyme activity, irreversible inhibitor; pH 5.5, 37 °C, with: 2,4-dinitrophenyl beta-D-glucopyranoside): 607 M⁻¹ s⁻¹
NC(=O)C1CCNC(=O)C(CCCNC(=O)c2cnccn2)NC(=O)C(Cc2ccco2)NC(=O)C(CC2CC2)NC(=O)C=CC(=O)N1 (centres unmarked) — enrichment factor (MAP2K6 (Homo sapiens, UniProt P52564); DNA-templated library selection; one selection round): 2.7
CNc1ccccc1C(=O)O[C@H]1C[C@H](n2cnc3c(N)ncnc32)O[C@@H]1COP(=O)(O)OP(=O)(O)O — dissociation rate constant (Unconventional myosin-Va (Gallus gallus, UniProt Q02440, D297C/G292C/I296C/S293C/V295G); stopped-flow FRET, linear fit intercept; 25 °C, with: EDTA 4 mM): 82.3 ± 4.52 s⁻¹
CCC(=O)NC1CCN(C(=O)c2ccc(NC(=O)NC34CC5CC(C)(CC(C)(C5)C3)C4)cc2)CC1 — lipophilic ligand efficiency (EPHX2): 6.42
CC[C@H](C)[C@H](NC(=O)[C@@H]1CCCN1C(=O)CNC(=O)[C@H](CC(N)=O)NC(=O)[C@@H]1CCCN1C(=O)[C@H](CO)NC(=O)[C@H](Cc1ccccc1)NC(=O)[C@H](CC(C)C)NC(=O)[C@H](Cc1ccc(O)cc1)NC(=O)[C@H](CC(N)=O)NC(=O)[C@@H](N)[C@@H](C)O)C(=O)N[C@@H](C)C(=O)N[C@@H](CCCNC(=N)N)C(=O)N[C@@H](C)C(=O)N[C@@H](Cc1c[nH]c2ccccc12)C(N)=O — koff (Ephrin type-B receptor 4, extracellular domain (EPHB4, Homo sapiens, UniProt P54760); SPR; pH 7.4, 25 °C): 0.0013 s⁻¹
C=CCn1c(=O)c2ccccc2n2c(SCC(=O)Nc3ccc(NC(C)=O)cc3)nnc12 — pA2 (CHRM2; ERK1/2 phosphorylation, antagonist; human cells; 3 µM, with: [3H]NMS, iperoxo at EC80): 10.8 ± 0.18
CCCCCCCC(=O)Nc1ccc(N(C)C)nc1C — specific activity (FAAH; enzyme activity, substrate; 50 µM, pH 8, 37 °C): 210 pmol/min/µg
Cc1cc2c(NC(=O)N[C@@H]3CC(C)(C)Oc4c(OC(F)(F)F)cccc43)cccc2cn1 — activity (TRPA1; cell-based; no activity up to value): > 100 µM
CC(C)CCSc1nc2c([nH]1)c(=S)n(C)c(=O)n2C — remaining activity (Nr3c1; reporter gene, antagonist, MMTV-luciferase; T47D/A1-2; 10 µM, 24 h, with: 5 nM dexamethasone; relative to: maximal activity): 89%
CSCC[C@H](NC(=O)[C@H](CO)NC(=O)[C@@H](NC(=O)[C@H](CCC(N)=O)NC(=O)[C@@H](CCCNC(=N)N)NC(=O)[C@@H](CCCNC(=N)N)NC(=O)[C@@H](CCCCN)NC(=O)[C@@H](CCCNC(=N)N)NC(C)=O)[C@@H](C)O)C(=O)N[C@H](C(=O)N[C@@H](CC(=O)O)C(=O)N[C@@H](Cc1ccccc1)C(=O)N[C@@H](Cc1ccc(O)cc1)C(=O)N[C@@H](Cc1c[nH]cn1)C(=O)N[C@@H](CO)C(=O)N[C@H](CCCCN)C(=O)N[C@H](CCCNC(=N)N)C(=O)N[C@H](CCCNC(=N)N)C(N)=O)[C@@H](C)O — binding enthalpy ΔH (PCNA (Homo sapiens, UniProt P12004); isothermal titration calorimetry; concentration not given, pH 7.4, 25 °C, 0 mM NaCl, with: p21 peptide): -17.7 ± 0.478 kcal/mol
COc1cc(N2CCN(C(=O)C3CCCN3)CC2)ccc1Nc1ncc(Cl)c(Nc2ccccc2P(C)(C)=O)n1 (centres unmarked) — Dmax (ALK tyrosine kinase receptor, EML4-ALK fusion (ALK, Homo sapiens, UniProt Q9UM73); degrader; NCI-H3122; 0.5 µM): 82%
O=c1c(-c2cnn(-c3ccc(Cl)cc3)c2)c(C(F)(F)F)oc2c(O)c(O)ccc12 — effective concentration range (Cullin-1, in SCF-βTrCP2 complex (Homo sapiens, UniProt Q13616); IκBα and β-catenin ubiquitination by SCF-βTrCP2, inhibitor): ~30 µM
CCCCCSc1nc2c([nH]1)c(=O)n(C)c(=O)n2C — remaining activity (Nr3c1; reporter gene, antagonist, MMTV-luciferase; T47D/A1-2; 10 µM, 24 h, with: 5 nM dexamethasone; relative to: maximal activity): 122%
CN1CCN(CC(=O)N2N=C3/C(=C/c4ccccc4)CCCC3C2c2ccccc2)CC1 (mixture of isomers) — rate increase (ALOX15 (Homo sapiens, UniProt P16050); activator; 10 µM, with: arachidonic acid substrate): 67%
C=C1C(=O)O[C@@H]2[C@H]3C(CO)=CC(=O)C3=C(C)C[C@H](OC(=O)Cc3ccc(O)cc3)[C@@H]12 — number of binding sites (MAL12 (Saccharomyces cerevisiae S288c, UniProt P53341); fluorescence quenching; concentration not given, 310 K): 1.02
CC12CC3CC(C)(C1)CC(NC(=O)Nc1ccc(C(=O)N4CCC[C@@H](C(N)=O)C4)cc1F)(C3)C2 — lipophilic ligand efficiency (EPHX2): 7.37
CC(C)(C)CCN1C[C@@H]2[C@@H](CNC(=O)c3cc(Cl)cc(Cl)c3)[C@@H]2C1.Cl — Gmax (CACNA1C (Oryctolagus cuniculus, UniProt P15381); whole-cell patch clamp; HEK-293T, transfected; 5 µM): 0.21 ± 0.067 nS/pF
CCCCCCOc1ccc(C(=O)OCC[N+]2(C)CC=CCC2)cc1 (centres unmarked) — dissociation half-time (CHRM2; recovery of [3H]NMS binding after washing; membranes; 100 µM): 1.7 h and < 2 h
O=C(Nc1ccc(OC(F)(F)F)cc1)N1CCC(Cc2cccc(Oc3ccc(C(F)(F)F)cn3)c2)CC1 — kinact/KI (FAAH; enzyme activity, inhibitor): 300000 M⁻¹ s⁻¹
CC(=O)N1CCN(C(=S)c2ccc(-c3cc(Cl)ccc3Cl)o2)CC1 — Emax (NPR2; HTRF, item: cGMP; HEK293 overexpressing GC-B; with: subthreshold CNP; relative to: saturating CNP): 95%
CC12CC3CC(C)(C1)CC(NC(=O)Nc1ccc(C(=O)N4CCN(C(=O)C5CC5)CC4)cc1)(C3)C2 — lipophilic ligand efficiency (EPHX2): 6.19
CNC(=O)c1cccc([C@@H]2C[C@H]2NC2CCC2)c1 (racemic) — relative N-formyl-FAD adduct (Lysine-specific histone demethylase 1A, with CoREST (KDM1A, Homo sapiens, UniProt O60341); inhibitor, LC-MS; relative to: total FAD species): 2%
CC[C@H](C)[C@H](NC(=O)[C@H](CC(C)C)NC(=O)[C@H](C)NC(=O)CNC(=O)CNC(=O)[C@H](CS)NC(=O)[C@H](Cc1ccccc1)NC(=O)[C@H](Cc1c[nH]cn1)NC(=O)[C@H](CCCNC(=N)N)NC(=O)CNC(=O)[C@H](CCC(N)=O)NC(=O)[C@@H](N)CC(N)=O)C(=O)N[C@@H](Cc1c[nH]cn1)C(=O)N[C@@H](C)C(=O)N[C@@H](CCCNC(=N)N)C(=O)N[C@@H](Cc1ccccc1)C(=O)N[C@H](C(=O)N[C@@H](CCSC)C(=O)N[C@H](C(=O)N[C@@H](C)C(=O)N[C@@H](C)C(=O)N[C@@H](CO)C(=O)N[C@@H](CS)C(=O)N[C@@H](Cc1ccccc1)C(=O)N[C@@H](CCC(N)=O)C(=O)O)[C@@H](C)O)C(C)C — fold threshold concentration (TLR4 (Homo sapiens, UniProt O00206); SEAP reporter, agonist; HEK-Blue hTLR4 cells; concentration not given; relative to: full-length peptide): 100 fold
C=CC(=O)N1C[C@H](C)N(c2nc(OC[C@@]34CCCN3C[C@H](F)C4)nc3c(F)c(-c4ccc(F)c5sc(N)c(C#N)c45)c(C(F)(F)F)cc23)C[C@H]1C — time to complete inhibition (GTPase KRas, with RAF1 RBD (KRAS, Homo sapiens, UniProt P01116, G12C); RAS-RAF binding, inhibitor, ELISA; MIA PaCa-2; 1 µM): ≤ 15 min
COCC(=O)N[C@@H](Cc1ccc(-c2cccc(OCc3ccccc3)c2)cc1)[C@H](O)[C@@H](O)C(=O)O — activity (CDC34, with ubiquitin (Homo sapiens, UniProt P49427); biochemical; concentration not given): inactive
CCCCCCCCCCCCNP(=O)(Oc1ccccc1)O[C@@H]1O[C@H](CO)[C@@H](O)[C@H](O)[C@H]1F (mixture of isomers) — inactivation rate constant (GBA1; enzyme activity, irreversible inhibitor; pH 5.5, 37 °C, with: 2,4-dinitrophenyl beta-D-glucopyranoside): 4.22 min⁻¹
C=CC1=C(C)c2cc3[n-]c(cc4nc(cc5[n-]c(cc1n2)c(C)c5C=C)C(C)=C4CCC(=O)O)c(CCC(=O)O)c3C.[Cl-].[Fe+3] — lowest interfering concentration (Coelenterazine h 2-monooxygenase (Renilla reniformis, UniProt P27652); luciferase luminescence, inhibitor, compound added after translation; Renilla): > 20 µM
CC(C)C[C@H](NC(=O)[C@H](N)Cc1ccc(O)cc1)C(=O)N(C)[C@@H](Cc1ccccc1)C(=O)N[C@@H](CCC(N)=O)C(=O)N1CCC[C@H]1C(=O)N[C@@H](CCC(N)=O)C(=O)N[C@@H](CCCNC(=N)N)C(=O)N[C@@H](Cc1ccccc1)C(N)=O — stimulation (NPFFR1 (Homo sapiens, UniProt Q9GZQ6); agonist; 10 µM; relative to: maximal activation): 71%
N#CCCN1CCN(C(=S)c2ccc(-c3cc(Cl)ccc3Cl)o2)CC1 — Emax (NPR2; cGMP production, activator; HEK293 expressing GC-B; with: CNP at EC20; relative to: saturating CNP): 112%
O=P(O)(O)O[C@@H]1[C@@H](O)[C@H](O)[C@H](O)[C@H](O)[C@H]1OP(=O)(O)O — Hill coefficient (Inositol 1,4,5-trisphosphate-gated calcium channel ITPR1, IP3-binding core (Itpr1, Rattus norvegicus, UniProt P29994); binding, 3H-IP3 competition; IP3-binding core IBC): 0.8 ± 0.1
CC1(C)CCN(Cc2ccc(C(=O)NC[C@]3(O)CCCN(c4cc(NCc5ccccc5)ncn4)C3)c(O)c2)CC1 — remaining activity (ROCK1 (Homo sapiens, UniProt Q13464); kinase activity, radiometric; 10 µM, with: 10 µM ATP): 86%
c1ccc(-c2cc3ccccc3o/c2=N\c2cccnc2)cc1 — binding free energy (PTGS1 (Ovis aries, UniProt P05979); enzyme activity, inhibitor; from IC50, T 300 K): -11 kcal/mol
CC(C)[C@H](NC(=O)[C@@H]1CCCN1C(=O)[C@H](C)NC(=O)[C@H](CO)NC(=O)[C@H](C)NC(=O)[C@H](CC(N)=O)NC(=O)[C@H](CCC(=O)O)NC(=O)[C@@H](NC(=O)[C@H](CC(=O)O)NC(=O)[C@H](CCCCN)NC(=O)[C@H](C)NC(=O)[C@H](CCC(N)=O)NC(=O)[C@H](Cc1ccccc1)NC(=O)[C@H](C)NC(=O)[C@H](Cc1c[nH]c2ccccc12)NC(=O)[C@H](C)NC(=O)[C@@H](NC(=O)CN)C(C)C)C(C)C)C(=O)O — Km (PCY1 Saponaria vaccaria; substrate, LC/MS; pH 8.5, 30 °C): 0.45 ± 0.17 µM
